Published values collected from several papers.
Lines come from different studies, so protocols differ. ± marks the error that the study gave.
BCHE: Cholinesterase (BCHE, Equus caballus, UniProt P81908)
Sequence of UniProt P81908 (whole entry, looked up): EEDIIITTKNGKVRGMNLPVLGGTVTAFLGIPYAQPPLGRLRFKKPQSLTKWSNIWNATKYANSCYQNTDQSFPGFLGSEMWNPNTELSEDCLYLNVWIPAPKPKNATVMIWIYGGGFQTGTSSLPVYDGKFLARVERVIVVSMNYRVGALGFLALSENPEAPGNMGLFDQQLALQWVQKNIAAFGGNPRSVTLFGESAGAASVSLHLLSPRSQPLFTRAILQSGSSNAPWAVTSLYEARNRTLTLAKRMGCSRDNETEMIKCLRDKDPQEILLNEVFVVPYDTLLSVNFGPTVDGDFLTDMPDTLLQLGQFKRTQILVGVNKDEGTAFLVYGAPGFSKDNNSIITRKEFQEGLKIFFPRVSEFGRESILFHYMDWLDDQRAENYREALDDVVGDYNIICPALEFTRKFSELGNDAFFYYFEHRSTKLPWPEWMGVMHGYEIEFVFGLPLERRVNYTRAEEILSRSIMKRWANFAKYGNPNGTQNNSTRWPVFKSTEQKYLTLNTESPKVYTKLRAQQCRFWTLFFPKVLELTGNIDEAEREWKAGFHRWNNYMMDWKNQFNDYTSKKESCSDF
Sequence of UniProt P26358 (whole entry, looked up): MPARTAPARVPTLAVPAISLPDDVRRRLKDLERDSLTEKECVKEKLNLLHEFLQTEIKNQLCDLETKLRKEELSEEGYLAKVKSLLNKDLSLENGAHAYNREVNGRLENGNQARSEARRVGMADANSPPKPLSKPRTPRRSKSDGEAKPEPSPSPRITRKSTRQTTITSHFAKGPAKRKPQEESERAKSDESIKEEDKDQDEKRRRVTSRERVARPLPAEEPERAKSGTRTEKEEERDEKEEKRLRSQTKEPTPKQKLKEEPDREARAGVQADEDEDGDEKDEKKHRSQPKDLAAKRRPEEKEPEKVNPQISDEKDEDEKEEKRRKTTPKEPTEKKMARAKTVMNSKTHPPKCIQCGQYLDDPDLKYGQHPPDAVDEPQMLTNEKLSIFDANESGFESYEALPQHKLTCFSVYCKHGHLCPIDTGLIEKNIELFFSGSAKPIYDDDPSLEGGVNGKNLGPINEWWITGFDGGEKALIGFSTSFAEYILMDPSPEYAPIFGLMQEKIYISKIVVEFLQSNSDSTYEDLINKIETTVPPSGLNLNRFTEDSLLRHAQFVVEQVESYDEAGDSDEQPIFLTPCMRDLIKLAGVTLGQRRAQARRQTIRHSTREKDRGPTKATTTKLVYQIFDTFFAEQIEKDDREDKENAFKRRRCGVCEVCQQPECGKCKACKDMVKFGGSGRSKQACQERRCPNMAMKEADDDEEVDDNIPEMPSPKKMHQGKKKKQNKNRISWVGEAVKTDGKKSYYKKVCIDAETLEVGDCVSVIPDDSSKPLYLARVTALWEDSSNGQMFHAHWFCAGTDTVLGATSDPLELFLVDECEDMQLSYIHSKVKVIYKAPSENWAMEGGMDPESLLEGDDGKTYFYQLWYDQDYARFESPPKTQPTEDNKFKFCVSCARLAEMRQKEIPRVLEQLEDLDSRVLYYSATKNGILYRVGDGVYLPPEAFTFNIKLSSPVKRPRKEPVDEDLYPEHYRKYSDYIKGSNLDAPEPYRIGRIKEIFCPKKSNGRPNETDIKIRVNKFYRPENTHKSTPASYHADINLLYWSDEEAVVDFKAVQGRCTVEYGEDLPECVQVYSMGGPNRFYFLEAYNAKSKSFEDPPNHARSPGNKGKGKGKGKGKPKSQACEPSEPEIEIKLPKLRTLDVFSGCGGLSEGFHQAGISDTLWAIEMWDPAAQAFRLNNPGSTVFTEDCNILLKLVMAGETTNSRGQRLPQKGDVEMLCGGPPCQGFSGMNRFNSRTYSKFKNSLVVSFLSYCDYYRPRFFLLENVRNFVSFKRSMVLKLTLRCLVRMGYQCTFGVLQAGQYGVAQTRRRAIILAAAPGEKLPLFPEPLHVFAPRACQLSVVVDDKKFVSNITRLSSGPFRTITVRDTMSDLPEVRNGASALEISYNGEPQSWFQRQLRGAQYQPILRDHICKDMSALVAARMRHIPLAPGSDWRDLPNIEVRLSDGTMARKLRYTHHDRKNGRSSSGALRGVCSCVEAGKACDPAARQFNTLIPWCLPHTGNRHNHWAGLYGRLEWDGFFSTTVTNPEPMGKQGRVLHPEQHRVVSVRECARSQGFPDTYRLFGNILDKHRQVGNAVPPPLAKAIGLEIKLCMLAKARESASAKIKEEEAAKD
Sequence of UniProt P06493 (whole entry, looked up): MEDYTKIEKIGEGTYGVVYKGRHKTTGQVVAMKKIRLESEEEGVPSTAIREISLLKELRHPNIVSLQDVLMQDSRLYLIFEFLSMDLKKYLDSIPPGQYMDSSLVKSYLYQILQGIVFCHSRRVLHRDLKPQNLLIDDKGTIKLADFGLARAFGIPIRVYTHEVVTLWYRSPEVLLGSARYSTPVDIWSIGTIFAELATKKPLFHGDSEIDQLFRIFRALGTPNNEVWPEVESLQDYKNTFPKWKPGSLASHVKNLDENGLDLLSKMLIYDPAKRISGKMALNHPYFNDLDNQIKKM
Sequence of UniProt P09619 (whole entry, looked up): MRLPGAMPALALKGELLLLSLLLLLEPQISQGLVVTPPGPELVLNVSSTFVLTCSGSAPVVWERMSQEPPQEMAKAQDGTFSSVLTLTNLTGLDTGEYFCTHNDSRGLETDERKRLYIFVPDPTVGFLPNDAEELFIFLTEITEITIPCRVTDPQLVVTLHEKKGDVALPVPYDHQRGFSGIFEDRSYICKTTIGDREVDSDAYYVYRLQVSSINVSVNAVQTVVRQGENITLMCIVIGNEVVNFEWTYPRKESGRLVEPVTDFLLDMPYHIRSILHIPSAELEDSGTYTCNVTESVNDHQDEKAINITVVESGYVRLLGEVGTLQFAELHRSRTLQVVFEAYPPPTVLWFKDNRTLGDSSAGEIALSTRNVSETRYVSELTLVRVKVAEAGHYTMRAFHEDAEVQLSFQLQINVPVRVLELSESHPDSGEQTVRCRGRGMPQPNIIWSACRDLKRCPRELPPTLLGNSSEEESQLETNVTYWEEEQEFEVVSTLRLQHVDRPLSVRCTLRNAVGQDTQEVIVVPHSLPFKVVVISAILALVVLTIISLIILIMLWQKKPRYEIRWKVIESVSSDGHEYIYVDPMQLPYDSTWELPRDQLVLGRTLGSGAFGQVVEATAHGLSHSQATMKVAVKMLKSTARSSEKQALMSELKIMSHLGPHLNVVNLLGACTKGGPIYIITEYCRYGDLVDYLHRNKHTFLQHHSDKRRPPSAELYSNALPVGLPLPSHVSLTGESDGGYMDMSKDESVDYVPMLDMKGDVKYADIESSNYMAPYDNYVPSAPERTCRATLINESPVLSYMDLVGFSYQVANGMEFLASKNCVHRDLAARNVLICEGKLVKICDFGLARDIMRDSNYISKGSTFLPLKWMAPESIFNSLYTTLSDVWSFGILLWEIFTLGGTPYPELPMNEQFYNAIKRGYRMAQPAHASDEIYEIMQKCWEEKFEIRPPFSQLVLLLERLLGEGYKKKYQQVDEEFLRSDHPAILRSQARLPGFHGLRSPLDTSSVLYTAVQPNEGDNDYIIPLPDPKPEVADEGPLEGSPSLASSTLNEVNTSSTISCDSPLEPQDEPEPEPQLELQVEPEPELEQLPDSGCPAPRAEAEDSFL
Sequence of UniProt P21917 (whole entry, looked up): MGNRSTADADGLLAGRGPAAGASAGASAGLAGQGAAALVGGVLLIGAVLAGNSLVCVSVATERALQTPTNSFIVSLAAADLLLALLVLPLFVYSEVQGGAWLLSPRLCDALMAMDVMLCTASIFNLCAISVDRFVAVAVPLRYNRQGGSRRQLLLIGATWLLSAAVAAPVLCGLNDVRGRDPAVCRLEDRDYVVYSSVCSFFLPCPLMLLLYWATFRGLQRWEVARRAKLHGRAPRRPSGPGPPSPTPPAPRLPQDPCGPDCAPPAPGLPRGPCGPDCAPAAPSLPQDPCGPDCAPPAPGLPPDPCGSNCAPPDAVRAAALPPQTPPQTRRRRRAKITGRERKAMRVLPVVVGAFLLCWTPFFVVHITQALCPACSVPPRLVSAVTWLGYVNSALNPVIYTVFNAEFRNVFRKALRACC
Sequence of UniProt Q8IU85 (whole entry, looked up): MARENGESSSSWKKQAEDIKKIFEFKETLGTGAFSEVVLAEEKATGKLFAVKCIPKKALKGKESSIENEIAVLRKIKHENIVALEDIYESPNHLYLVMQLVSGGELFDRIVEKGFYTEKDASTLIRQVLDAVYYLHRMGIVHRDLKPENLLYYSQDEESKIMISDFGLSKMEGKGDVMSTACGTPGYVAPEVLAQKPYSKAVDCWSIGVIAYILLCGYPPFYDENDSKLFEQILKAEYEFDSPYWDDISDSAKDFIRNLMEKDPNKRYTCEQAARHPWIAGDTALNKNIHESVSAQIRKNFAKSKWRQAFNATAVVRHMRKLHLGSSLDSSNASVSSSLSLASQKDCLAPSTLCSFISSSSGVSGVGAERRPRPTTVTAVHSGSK
Sequence of UniProt P25101 (whole entry, looked up): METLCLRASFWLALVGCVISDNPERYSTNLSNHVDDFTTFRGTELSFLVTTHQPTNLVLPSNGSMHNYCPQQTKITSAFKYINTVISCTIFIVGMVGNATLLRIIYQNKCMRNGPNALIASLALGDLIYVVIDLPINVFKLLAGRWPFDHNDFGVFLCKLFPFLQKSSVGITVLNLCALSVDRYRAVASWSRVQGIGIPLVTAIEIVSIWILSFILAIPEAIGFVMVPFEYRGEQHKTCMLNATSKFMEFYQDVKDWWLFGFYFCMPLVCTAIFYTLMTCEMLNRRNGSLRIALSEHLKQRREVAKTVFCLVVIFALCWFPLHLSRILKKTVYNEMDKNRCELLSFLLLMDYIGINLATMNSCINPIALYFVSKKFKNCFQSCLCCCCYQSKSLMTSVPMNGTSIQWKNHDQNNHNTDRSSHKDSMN

SMILES | target | assay | system | setting | inhibition
N[C@H](C(=O)N1CCCC1)C1CCN(c2nccc3c(-c4ncc(Cl)cc4Cl)cccc23)CC1 | Angiotensin-converting enzyme (ACE, Homo sapiens, UniProt P12821) | enzyme activity, inhibitor |  | 10 µM | 18%
O=C(c1cc(Cc2n[nH]c(=O)c3ccccc23)ccc1F)N1CC(CNC2CC2)C1 | Poly [ADP-ribose] polymerase tankyrase-2 (TNKS2, Homo sapiens, UniProt Q9H2K2) | enzyme activity, inhibitor |  | 10 µM | 62%
NC1CC1 | BCHE | enzyme activity, inhibitor, Ellman |  | 20 µM | 32%
C/C(=N\OCCCN1CCCCC1)c1ccc(C(F)(F)F)cc1 | Endothelin-1 receptor (EDNRA, Homo sapiens, UniProt P25101) | antagonist, IP-One |  | 10 µM | -3.82%
c1ccc2c(c1)CCNC2 | BCHE | enzyme activity, inhibitor, Ellman |  | 20 µM | 36.9%
Cc1cc(-c2ccc3ccccc3c2)nnc1NCCN1CCN(C)CC1 | Organic anion transporter 3 (SLC22A8, Homo sapiens, UniProt Q8TCC7) | transport |  | concentration not given | negative
CC(=O)NC[C@@H]1[C@@H](O)C[C@H]2[C@H](O)C[C@@H](CO)N12 | Spodoptera litura β-N-acetylglucosaminidase |  | crude enzyme | 3.42 µM, run 2, together with: p-nitrophenyl GlcNAc | 89.3%
CS(=O)(=O)Nc1cccc(-c2csc3cnc(Nc4ccc(N5CCN(CCCCCOc6cccc7c6C(=O)N(C6CCC(=O)NC6=O)C7=O)CC5)cc4)nc23)c1 (centres unmarked) | Serine/threonine-protein kinase tousled-like 1 (TLK1, Homo sapiens, UniProt Q9UKI8) | probe labelling, inhibitor, KiNativ chemoproteomics | MOLT-4 | 1 µM | 25.2%
CN[C@@H]1[C@H](O)[C@H](NC)[C@H]2O[C@]3(O)[C@H](O[C@@H]2[C@H]1O)O[C@H](C)C[C@H]3NC(=O)Cc1cc(Cl)ccn1 | Histamine H3 receptor (HRH3, Homo sapiens, UniProt Q9Y5N1) | ligand displacement, radioligand |  | 10 µM | 1%
COc1ccc(F)cc1S(=O)(=O)Nc1cnc2c(c1)C(=O)NCCO2 | aldosterone receptor | radioligand binding |  | 10 µM | 1%
COc1ccccc1N1CCN(CCCCN2CCCc3ccccc3C2=O)CC1 | D(4) dopamine receptor (DRD4, Homo sapiens, UniProt P21917) | radioligand binding |  | concentration not given, together with: [3H]N-methylspiperone | 100%
CC(C)[C@H]1NC(=O)C[C@H]2/C=C/CCSSC[C@@H](NC1=O)C(=O)N[C@H](Cc1cccc3ccccc13)C(=O)NCC(=O)O2 | Calcium/calmodulin-dependent protein kinase type 1D (CAMK1D, Homo sapiens, UniProt Q8IU85) | enzyme activity, inhibitor |  | 10 µM | 18.2%
N#Cc1ccc(N2N=C3c4ccc(C(=O)O)cc4CCC3C2C2CCCC2)cc1Cl (centres unmarked) | DNA (cytosine-5)-methyltransferase 1 (DNMT1, Homo sapiens, UniProt P26358) | enzyme activity, inhibitor |  | 10 µM | 7%
O=C(O)c1ccccc1/C=N/Nc1nc(-c2ccccc2Cl)cs1 | High affinity nerve growth factor receptor (NTRK1, Homo sapiens, UniProt P04629) | enzyme activity, inhibitor |  | 1 µM | -37.3%
O=C(CN1CN(c2ccccc2)C2(CCN(C(=O)c3cnc4[nH]ncc4c3)CC2)C1=O)NCC(F)(F)F | Hepatocyte growth factor receptor (MET, Homo sapiens, UniProt P08581, Y1235D) | inhibitor |  | concentration not given | < 50%
O=S(=O)(F)CCc1cn(Cc2ccccc2F)nn1 | BCHE | enzyme activity, inhibitor, Ellman's method | horse serum BuChE | 20 µM | 29.4 ± 3.3%
Cc1cc(OCC(=O)NCCNC(=O)c2cccc(COc3ccccc3C(N)=O)c2)c2c3c(c(=O)oc2c1)CCC3 | Poly [ADP-ribose] polymerase 2 (PARP2, Homo sapiens, UniProt Q9UGN5) | enzyme activity, inhibitor |  | 50 nM | 79%
CN(/N=C/c1ccccc1C(=O)O)c1nc(-c2ccccc2Cl)cs1 | Cyclin-dependent kinase 1, with cyclin E1 (CDK1, Homo sapiens, UniProt P06493) | enzyme activity, inhibitor |  | 1 µM | -13.9%
CCN(CC)CCOc1ccc(-c2nnn(Cc3ccc(OC)cc3)c2N)cc1 | NMDA receptor (rat) | radioligand binding | cerebral cortex | 10 µM, together with: 10000 nM radioligand | -16.5%
CCCCCCCCCCCCCCCCCC(=O)NC[C@H]1CC[C@H](C(=O)N[C@@H](CCC(=O)NCCCOCCOCCOCCCNC(=O)COCC(=O)N[C@@H](Cc2ccc(O)cc2)C(=O)NC(C)(Cc2ccccc2)C(=O)N[C@@H](CC(C)C)C(=O)N[C@@H](CCCC)C(=O)N[C@@H](CCCNC(=N)N)C(=O)N2CCC[C@H]2C(=O)N[C@@H](CCCNC(=N)NC)C(=O)N[C@@H](CC(N)=O)C(N)=O)C(=O)O)CC1 (some centres unmarked) | Neuropeptides B/W receptor type 1 (NPBWR1, Homo sapiens, UniProt P48145) | antagonist, DiscoverX GPCR panel |  | 1 µM | 57%
CN(C)[C@H]1C[C@@]23CC[C@@]4(O2)C(=CC[C@]2(C)[C@@H](c5ccc6ccncc6c5)CC[C@H]24)C=C3[C@@H](O)[C@@H]1O | Cyclin-dependent kinase 13 (CDK13, Homo sapiens, UniProt Q14004) | ATP probe labelling, inhibitor, KiNativ profiling |  | 1 µM | 1.3%
C[C@H](NCc1ccc(-c2ccc(C(F)(F)F)cc2)cc1)C(N)=O | Platelet-derived growth factor receptor beta (PDGFRB, Homo sapiens, UniProt P09619) | cell-free assay, competition with immobilised ligand |  | 1 µM | 0%
CS(C)(=O)=Nc1ccc(-c2ccc(-c3nc4cc(O[C@@H]5CO[C@H]6[C@@H]5OC[C@H]6O)[nH]c4cc3F)cc2)cc1 | Tyrosine-protein kinase ABL1 (ABL1, Homo sapiens, UniProt P00519, T315I) | enzyme activity, inhibitor |  | 10 µM | 1%
